# Published values gathered from unrelated publications.
# A part holds a random share of what one study measured. Changes are numbered by the printed parent chain.
# Sequence of UniProt P28223 (whole entry, looked up): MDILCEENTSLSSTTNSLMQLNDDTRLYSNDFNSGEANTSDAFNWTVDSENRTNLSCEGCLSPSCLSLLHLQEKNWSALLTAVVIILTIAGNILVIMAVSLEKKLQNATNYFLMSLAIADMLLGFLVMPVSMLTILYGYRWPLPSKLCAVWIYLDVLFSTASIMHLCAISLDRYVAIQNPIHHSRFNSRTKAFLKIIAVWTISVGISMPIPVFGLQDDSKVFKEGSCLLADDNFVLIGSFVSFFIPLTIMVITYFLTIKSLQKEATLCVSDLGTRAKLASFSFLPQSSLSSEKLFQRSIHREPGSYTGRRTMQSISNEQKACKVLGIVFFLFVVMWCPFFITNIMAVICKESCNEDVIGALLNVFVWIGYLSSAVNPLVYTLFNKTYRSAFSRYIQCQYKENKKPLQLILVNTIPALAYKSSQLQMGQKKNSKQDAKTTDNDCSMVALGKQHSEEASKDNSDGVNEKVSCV

# Series 1
# Target: Histone acetyltransferase KAT6A, winged helix 1, GST fusion (KAT6A, Homo sapiens, UniProt Q92794, residues 1-85)
# Technique: protein binding microarray
# Form: double-stranded DNA, one strand shown
# Matrix: in vitro
# Concentration: not given
# Setting: 8-mer, flanks averaged, mean of 2 arrays, mostly near background
# Baseline: not given
# Direction: higher = stronger binding
# Target sequence (chain): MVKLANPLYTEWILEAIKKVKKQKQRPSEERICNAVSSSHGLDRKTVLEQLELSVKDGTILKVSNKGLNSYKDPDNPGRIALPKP
Strand,E-score
ATATCCTC,-0.268
ATGCGAAC,0.091
CCACTGTC,-0.239
CTGTAAGA,-0.101
GATTTTCA,-0.223
CCAAAAAG,-0.134
CATGTTGG,-0.0143
CCTTGTCA,-0.063

# Series 2
# Target: Sal-like protein 4, full length isoform A (SALL4, Homo sapiens, UniProt Q9UJQ4, residues 1-1053)
# Sequence of UniProt Q9UJQ4 (whole entry, looked up): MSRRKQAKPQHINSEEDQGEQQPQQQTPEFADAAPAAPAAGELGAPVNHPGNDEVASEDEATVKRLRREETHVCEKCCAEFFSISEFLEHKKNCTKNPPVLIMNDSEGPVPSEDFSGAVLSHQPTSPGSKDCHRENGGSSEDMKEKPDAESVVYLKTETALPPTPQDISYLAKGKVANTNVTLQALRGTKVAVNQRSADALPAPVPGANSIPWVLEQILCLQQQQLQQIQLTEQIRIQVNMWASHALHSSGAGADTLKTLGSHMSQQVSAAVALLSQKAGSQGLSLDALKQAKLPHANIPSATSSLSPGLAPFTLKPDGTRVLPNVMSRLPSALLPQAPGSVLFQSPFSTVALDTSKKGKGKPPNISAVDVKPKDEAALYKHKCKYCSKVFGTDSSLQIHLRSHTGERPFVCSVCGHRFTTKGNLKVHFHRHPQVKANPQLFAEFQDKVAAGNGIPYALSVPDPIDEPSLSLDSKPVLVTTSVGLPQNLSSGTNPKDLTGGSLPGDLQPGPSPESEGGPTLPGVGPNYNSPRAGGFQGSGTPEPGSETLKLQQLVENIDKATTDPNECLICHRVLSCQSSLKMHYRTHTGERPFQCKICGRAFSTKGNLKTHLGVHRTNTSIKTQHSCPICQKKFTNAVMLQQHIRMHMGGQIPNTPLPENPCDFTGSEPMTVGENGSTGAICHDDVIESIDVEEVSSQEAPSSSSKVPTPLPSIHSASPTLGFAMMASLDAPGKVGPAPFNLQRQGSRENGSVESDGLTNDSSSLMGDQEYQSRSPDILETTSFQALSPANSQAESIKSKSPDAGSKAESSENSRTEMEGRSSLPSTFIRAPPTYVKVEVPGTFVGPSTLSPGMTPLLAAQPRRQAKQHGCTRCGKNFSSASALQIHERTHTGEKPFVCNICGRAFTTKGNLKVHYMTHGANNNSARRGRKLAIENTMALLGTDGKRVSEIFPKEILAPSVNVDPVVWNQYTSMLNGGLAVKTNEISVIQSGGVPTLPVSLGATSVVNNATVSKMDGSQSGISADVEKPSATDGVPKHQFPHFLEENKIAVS
# Technique: universal PBM
# Form: double-stranded DNA, one strand shown
# Matrix: in vitro
# Concentration: 600 nM
# Setting: 8-mer, flanks averaged, mean of replicates
# Direction: higher = stronger binding
Strand,E-score
AACAGACC,0.0499
AATCGCAG,0.107
CCGACCAA,-0.185
GAAAAGCA,0.0503
ATAAAATG,0.369
AGGCGTCA,-0.16
AACGCACA,0.0504
TAGTCGAA,0.0655

# Series 3
# Change: R49Q
# Target: ABI1, truncated, D143A, DHFR fusion (Arabidopsis thaliana)
# Technique: DHFR PCA, deep sequencing
# Matrix: yeast
# Setting: methotrexate growth selection, single substitutions
# Baseline: wild-type fitted maximum
# Direction: higher = stronger binding
# Starting sequence: PYL1, truncated, DHFR fusion (Arabidopsis thaliana); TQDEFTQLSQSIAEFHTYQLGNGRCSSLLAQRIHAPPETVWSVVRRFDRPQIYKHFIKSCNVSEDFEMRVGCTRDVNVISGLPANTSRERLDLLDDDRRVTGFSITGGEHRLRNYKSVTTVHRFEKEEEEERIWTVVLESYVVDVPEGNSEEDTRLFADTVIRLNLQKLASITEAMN
conditions,relative binding score
together with: (+)-ABA 0 µM,45.5%
together with: (+)-ABA 200 µM,101%
together with: (+)-ABA 17 µM,94.2%
together with: (+)-ABA 0.39 µM,58.5%
together with: (+)-ABA 0.11 µM,50.1%
together with: (+)-ABA 0.0091 µM,42.1%

# Series 4
# Target: CCNB3, cyclin fold, Cln2 fusion (human)
# Technique: yeast growth competition, sequencing
# Matrix: yeast
# Setting: strong parent motif
# Baseline: not given
# Direction: higher = stronger binding
# Starting sequence: viral docking peptide; KGVKRKLFAEDSS
Change,normalised enrichment score
KGVKRKLFAGDSS [E10G],1.88
KGVKRKLFAEDYS [S12Y],2.72
KGVKRKLFAEDMS [S12M],2.72
KGVKRKLFAPDSS [E10P],2.18
KGVTRKLFAEDSS [K4T],0.341
KGVKRKGFAEDSS [L7G],0.0671
KGVVRKLFAEDSS [K4V],2.84
KGVKRKLAAEDSS [F8A],0.383
KGVKRKLFAADSS [E10A],1.92
KGVKRKLFAEKSS [D11K],1.79
KGTKRKLFAEDSS [V3T],0.568
KGVKCKLFAEDSS [R5C],0.726
KGSKRKLFAEDSS [V3S],0.132
KGVKRKLFAHDSS [E10H],1.45
KIVKRKLFAEDSS [G2I],1.91
KGVKRKLFAVDSS [E10V],1.76
KGVKRKLFAEVSS [D11V],2.03
KGVKRPLFAEDSS [K6P],0.157
KGVKRKQFAEDSS [L7Q],0.217

# Single results of other studies
SMILES,target,assay,conditions,endpoint,result
CNC(=N)NCCC[C@H](NC(=O)[C@H](CC(C)C)NC(=O)NNC(=O)[C@H](Cc1ccccc1)NC(=O)[C@H](CO)NC(=O)[C@H](CC(N)=O)NC(=O)[C@@H](Cc1ccncc1)NC(=O)[C@H](N)Cc1ccc(O)cc1)C(=O)N[C@@H](Cc1ccccc1)C(N)=O,"5-hydroxytryptamine receptor 2A (HTR2A, Homo sapiens, UniProt P28223)",ligand displacement,10 µM,inhibition,-11.2%

# For quick reference, copied from above (series 4):
Change,normalised enrichment score
KGVKRKLFAEDYS [S12Y],2.72
KGVKRKLFAEDMS [S12M],2.72
KGVKRKLFAPDSS [E10P],2.18
KGVTRKLFAEDSS [K4T],0.341
KGVKRKGFAEDSS [L7G],0.0671
KGVVRKLFAEDSS [K4V],2.84
